Measurements from different studies.
Each line is one published result; not all experiments were run side by side. ± marks the error that the study gave.
Chain of UniProt P0A725 (whole entry, looked up): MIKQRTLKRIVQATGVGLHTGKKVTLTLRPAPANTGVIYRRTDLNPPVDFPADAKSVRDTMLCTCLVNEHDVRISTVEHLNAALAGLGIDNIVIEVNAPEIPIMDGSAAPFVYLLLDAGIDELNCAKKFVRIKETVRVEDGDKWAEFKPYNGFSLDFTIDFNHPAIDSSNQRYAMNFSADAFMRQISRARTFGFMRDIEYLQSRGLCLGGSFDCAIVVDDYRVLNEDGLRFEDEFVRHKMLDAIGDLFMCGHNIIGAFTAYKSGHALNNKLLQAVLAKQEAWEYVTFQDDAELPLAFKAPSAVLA

Compound	target or system	assay	system	setting	endpoint	result
CC(=O)[O-].F[P-](F)(F)(F)(F)F.[Co+2].c1ccc(CN2CCCNCCN(Cc3ccccc3)CCCNCC2)cc1	Leishmania donovani	parasite growth, resazurin		72 h, amastigote	IC90	> 15 µM
CCC(=C(c1ccc(Cl)cc1)c1ccc(OCCN(C)C)cc1)c1ccc(OC)cc1	influenza A virus H1N1	cytopathic effect, visual CPE	MDCK		EC50	> 4.2 µg/mL
C[C@@](O)(C(F)F)[C@H](NC(=O)c1ccc(C#CC#CC2CC2)cc1)C(=O)NO	UDP-3-O-acyl-N-acetylglucosamine deacetylase (Escherichia coli K-12, UniProt P0A725)	target binding in plasma, rapid equilibrium dialysis	mouse plasma	10 µM, with: LpxC 5 µM in buffer	buffer-to-plasma concentration ratio	0.21 ± 0.02
[Cl-].[Cl-].[Mn+2].c1ccc(CN2CCNCCN(Cc3ccccc3)CCNCC2)cc1	Leishmania donovani	parasite growth, resazurin		72 h, amastigote	IC90	> 20 µM
O=C(CN1CCCC2=CC3CC(CN4CCCCC34)C21)Nc1cc(Br)ccc1F (stereo not drawn)	vesicular stomatitis virus	pseudovirus entry		VSV G pseudovirus	EC50	66.8 µM
CCC(=C(c1ccc(Cl)cc1)c1ccc(OCCN2CCCC2)cc1)c1ccccc1	influenza A virus H1N1	cytopathic effect, visual CPE	MDCK		EC50	0.29 µg/mL
O=C(c1ccc(Cl)cc1)N1CCCC2=CC3CC(CN4CCCCC34)C21 (stereo not drawn)	vesicular stomatitis virus	pseudovirus entry		VSV G pseudovirus	EC50	214 µM
CCC(=C(c1ccc(Cl)cc1)c1ccc(OCCN2CCCCC2)cc1)c1ccc(OC)cc1	influenza A virus H1N1	cytopathic effect, visual CPE	MDCK		EC50	> 3.2 µg/mL
Cc1cn(C2CC(N(C)C)C(CO)O2)c(=O)[nH]c1=O (stereo not drawn)	vesicular stomatitis virus	viral replication	HeLa		EC50	> 0.37 µM
O=C1/C(=N\NC(=S)NN=Cc2cccs2)c2ccccc2N1Cc1ccccc1	vesicular stomatitis virus	viral replication	HeLa		EC50	> 4 µM
CN[C@](C)(C[18F])C(=O)O	SK-OV-3 tumour model		host not given, lung	2 h, tumour-bearing	tracer uptake	1.2 %ID/g
Cc1ccc(NC(=O)CN2CCCC3=CC4CC(CN5CCCCC45)C32)c(Cl)c1 (stereo not drawn)	vesicular stomatitis virus	pseudovirus entry		VSV G pseudovirus	EC50	87.9 µM
CCCCCCCCCC(=O)OCC1OC(n2cc(C)c(=O)[nH]c2=O)CC1N(C)C (stereo not drawn)	vesicular stomatitis virus	viral replication	HeLa		EC50	> 0.23 µM
Nc1ccc(/C=C/C(=O)N2CCc3c(oc4c(-c5ccc(F)cc5)cc(-c5ccc(C(=O)N6CCC(F)(F)CC6)cn5)cc34)C2)cn1	MIA PaCa-2	western blot, item: BCL-XL		concentration not given	protein level	decreased
O=C(Cc1csc2nc(-c3ccc(Br)cc3)cn12)NN=C1CCCC1	vesicular stomatitis virus	viral cytopathic effect	HEL		EC50	> 100 µg/mL

Some of these lines once more:
Compound	target or system	assay	system	setting	endpoint	result
Nc1ccc(/C=C/C(=O)N2CCc3c(oc4c(-c5ccc(F)cc5)cc(-c5ccc(C(=O)N6CCC(F)(F)CC6)cn5)cc34)C2)cn1	MIA PaCa-2	western blot, item: BCL-XL		concentration not given	protein level	decreased
O=C(Cc1csc2nc(-c3ccc(Br)cc3)cn12)NN=C1CCCC1	vesicular stomatitis virus	viral cytopathic effect	HEL		EC50	> 100 µg/mL
